# Measured values pooled from the literature.
# A part holds a random share of what one study measured. Several values in a cell are separate wells, animals, samples, runs or records.
# UniProt P49761, sequence (whole entry, looked up): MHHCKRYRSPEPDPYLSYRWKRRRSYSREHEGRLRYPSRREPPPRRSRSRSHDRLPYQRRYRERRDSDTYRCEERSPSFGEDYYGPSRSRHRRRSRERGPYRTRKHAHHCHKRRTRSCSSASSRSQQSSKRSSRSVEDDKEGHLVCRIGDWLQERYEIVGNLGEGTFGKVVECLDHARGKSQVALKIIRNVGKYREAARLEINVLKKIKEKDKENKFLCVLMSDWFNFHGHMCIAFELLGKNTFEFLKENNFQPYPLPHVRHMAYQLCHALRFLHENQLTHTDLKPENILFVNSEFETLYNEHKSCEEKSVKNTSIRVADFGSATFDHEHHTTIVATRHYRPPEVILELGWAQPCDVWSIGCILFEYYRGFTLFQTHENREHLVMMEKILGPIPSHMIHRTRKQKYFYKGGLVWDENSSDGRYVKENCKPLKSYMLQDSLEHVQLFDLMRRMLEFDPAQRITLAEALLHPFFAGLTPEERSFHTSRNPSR
# UniProt Q9HAZ1, sequence (whole entry, looked up): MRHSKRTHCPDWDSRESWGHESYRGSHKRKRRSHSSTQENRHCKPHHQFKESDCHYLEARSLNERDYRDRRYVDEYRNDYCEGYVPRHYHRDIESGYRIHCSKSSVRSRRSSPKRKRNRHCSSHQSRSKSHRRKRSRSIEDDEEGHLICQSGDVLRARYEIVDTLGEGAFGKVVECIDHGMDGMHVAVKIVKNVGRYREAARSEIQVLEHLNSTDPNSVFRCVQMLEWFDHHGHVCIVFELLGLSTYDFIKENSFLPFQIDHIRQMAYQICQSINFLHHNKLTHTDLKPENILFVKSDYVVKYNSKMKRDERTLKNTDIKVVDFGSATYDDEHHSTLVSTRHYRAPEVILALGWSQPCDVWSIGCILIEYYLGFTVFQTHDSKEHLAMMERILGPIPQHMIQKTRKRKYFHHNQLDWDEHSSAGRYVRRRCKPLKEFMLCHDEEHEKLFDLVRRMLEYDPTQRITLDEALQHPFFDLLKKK
# UniProt P32298, sequence (whole entry, looked up): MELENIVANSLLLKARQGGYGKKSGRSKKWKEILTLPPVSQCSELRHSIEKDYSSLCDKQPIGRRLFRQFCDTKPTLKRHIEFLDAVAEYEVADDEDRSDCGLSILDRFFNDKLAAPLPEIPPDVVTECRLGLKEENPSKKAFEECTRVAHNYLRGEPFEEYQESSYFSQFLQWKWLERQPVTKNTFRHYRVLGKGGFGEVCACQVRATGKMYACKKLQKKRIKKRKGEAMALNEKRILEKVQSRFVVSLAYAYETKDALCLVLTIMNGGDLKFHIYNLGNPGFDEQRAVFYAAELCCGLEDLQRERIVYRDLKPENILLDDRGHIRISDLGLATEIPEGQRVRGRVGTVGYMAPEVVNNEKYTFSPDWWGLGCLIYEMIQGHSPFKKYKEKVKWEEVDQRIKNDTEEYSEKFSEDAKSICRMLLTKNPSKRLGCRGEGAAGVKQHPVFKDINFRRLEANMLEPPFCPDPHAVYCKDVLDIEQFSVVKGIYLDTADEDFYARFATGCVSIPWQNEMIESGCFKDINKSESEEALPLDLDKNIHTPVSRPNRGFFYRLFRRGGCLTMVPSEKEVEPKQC
# UniProt P42336, sequence (whole entry, unmodified, looked up): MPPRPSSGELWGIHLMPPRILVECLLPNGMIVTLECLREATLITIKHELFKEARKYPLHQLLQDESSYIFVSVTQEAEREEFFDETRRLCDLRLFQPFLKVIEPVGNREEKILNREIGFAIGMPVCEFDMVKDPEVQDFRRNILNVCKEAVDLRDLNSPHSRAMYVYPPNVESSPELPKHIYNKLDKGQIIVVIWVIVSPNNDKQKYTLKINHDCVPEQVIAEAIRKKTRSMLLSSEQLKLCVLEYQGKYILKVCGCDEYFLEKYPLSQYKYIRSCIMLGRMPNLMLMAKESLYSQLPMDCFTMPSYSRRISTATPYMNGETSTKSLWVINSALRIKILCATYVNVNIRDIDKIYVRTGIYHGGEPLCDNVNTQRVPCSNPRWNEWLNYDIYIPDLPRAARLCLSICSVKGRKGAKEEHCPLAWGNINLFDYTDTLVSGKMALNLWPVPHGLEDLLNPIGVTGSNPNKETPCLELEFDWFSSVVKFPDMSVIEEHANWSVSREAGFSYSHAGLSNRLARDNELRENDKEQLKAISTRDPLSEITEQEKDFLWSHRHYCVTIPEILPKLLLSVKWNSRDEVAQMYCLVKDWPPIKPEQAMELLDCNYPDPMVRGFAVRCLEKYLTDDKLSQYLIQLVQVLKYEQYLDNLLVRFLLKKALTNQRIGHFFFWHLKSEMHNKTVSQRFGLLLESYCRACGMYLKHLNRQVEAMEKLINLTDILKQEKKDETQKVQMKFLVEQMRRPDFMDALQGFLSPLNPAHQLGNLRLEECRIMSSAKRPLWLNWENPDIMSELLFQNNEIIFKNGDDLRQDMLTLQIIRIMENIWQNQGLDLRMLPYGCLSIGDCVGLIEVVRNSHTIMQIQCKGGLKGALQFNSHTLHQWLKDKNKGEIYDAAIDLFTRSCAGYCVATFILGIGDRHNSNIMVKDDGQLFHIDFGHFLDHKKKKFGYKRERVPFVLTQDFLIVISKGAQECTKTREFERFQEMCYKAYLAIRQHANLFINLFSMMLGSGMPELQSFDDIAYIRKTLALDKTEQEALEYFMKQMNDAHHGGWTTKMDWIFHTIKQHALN
# UniProt P31751, sequence (whole entry, looked up): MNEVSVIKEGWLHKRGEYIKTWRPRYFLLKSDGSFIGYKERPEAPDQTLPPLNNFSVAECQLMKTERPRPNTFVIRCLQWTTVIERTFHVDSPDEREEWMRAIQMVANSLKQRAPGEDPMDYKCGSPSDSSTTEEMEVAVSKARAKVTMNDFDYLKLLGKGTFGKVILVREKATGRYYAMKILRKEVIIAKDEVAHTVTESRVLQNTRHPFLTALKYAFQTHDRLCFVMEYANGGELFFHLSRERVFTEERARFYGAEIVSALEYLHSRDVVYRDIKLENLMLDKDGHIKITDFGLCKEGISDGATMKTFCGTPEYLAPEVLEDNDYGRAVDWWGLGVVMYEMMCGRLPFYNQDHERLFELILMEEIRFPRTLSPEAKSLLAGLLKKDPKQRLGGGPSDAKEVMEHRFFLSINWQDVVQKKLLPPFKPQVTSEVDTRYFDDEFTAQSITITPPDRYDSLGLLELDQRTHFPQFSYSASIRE
# UniProt P06213, sequence (whole entry, looked up): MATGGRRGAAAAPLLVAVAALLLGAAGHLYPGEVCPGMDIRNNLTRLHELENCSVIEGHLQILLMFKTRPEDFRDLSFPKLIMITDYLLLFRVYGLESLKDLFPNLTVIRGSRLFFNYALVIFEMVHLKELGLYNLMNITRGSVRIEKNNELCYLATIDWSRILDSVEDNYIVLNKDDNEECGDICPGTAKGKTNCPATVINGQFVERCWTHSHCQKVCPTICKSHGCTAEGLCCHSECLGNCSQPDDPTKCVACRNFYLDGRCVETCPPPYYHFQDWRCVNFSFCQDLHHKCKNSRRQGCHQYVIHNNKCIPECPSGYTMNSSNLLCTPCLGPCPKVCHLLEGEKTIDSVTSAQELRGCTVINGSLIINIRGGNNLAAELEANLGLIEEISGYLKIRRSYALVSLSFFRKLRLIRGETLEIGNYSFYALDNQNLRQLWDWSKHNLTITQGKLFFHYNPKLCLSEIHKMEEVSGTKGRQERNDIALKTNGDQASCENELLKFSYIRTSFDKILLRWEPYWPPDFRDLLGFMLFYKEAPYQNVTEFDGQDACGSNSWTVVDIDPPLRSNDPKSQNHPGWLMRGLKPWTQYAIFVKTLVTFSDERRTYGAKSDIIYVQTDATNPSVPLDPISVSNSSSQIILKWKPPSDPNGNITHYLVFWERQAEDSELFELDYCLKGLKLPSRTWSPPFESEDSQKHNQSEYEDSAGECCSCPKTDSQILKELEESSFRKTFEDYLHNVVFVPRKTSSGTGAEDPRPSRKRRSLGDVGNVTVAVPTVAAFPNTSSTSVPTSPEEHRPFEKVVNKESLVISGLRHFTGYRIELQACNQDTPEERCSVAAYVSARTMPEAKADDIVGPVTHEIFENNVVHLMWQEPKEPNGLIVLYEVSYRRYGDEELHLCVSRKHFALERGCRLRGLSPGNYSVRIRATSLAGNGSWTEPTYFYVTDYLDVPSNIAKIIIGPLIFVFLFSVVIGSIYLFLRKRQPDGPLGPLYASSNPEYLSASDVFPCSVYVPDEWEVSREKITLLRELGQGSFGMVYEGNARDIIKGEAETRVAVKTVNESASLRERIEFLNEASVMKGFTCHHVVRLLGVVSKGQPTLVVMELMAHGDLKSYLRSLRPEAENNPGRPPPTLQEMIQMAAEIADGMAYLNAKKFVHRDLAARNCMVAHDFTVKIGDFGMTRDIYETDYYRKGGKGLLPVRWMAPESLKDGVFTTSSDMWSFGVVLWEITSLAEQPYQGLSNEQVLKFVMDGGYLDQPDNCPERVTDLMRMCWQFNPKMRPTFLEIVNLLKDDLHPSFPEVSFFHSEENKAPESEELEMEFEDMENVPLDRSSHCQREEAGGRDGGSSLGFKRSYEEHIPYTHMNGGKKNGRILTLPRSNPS
# UniProt P28482, sequence (whole entry, looked up): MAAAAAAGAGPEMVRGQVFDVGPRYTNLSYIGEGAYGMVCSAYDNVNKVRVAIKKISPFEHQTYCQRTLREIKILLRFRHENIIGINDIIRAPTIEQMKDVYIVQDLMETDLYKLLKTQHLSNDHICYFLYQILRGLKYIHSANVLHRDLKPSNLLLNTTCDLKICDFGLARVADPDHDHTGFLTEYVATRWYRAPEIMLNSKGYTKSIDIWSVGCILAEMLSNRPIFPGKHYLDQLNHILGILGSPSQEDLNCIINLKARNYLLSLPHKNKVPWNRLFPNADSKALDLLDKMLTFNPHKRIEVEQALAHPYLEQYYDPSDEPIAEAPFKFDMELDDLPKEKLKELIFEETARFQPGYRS

# Series 1 — technique: phase 2a clinical trial
# SMILES: CC(C)n1cnc(-c2ccc(F)cc2)c1-c1ncc(C(=O)Nc2ccc(N3CCN(C)CC3)cc2)[nH]1
# Host: patients with idiopathic pulmonary fibrosis
test,setting,patients with treatment-emergent adverse events
measured: idiopathic pulmonary fibrosis,"30 mg once daily, Grade 1",0%
measured: hepatic function abnormal,"60 mg once daily, Grade 4",0%
measured: electrocardiogram T wave abnormal,"30 mg once daily, Grade 3",0%
measured: left bundle branch block,"dose not given, Grade 2, all drug arms",0%
measured: left bundle branch block,"30 mg once daily, Grade 5",0%
measured: metabolism and nutrition disorders (SOC),"60 mg once daily, Grade 4",0%
measured: gastro-oesophageal reflux disease,"dose not given, Grade 3, all drug arms total",0%

# Series 2 — effect on: cell-free assay; technique: competition with immobilised ligand; tested at: 1 µM
# Structure (SMILES): CC(=O)Nc1c(C(C)=O)c(=O)n(C)c2nc(-c3ccc(Cl)cc3Cl)c(-c3ccc(Cl)cc3)cc12
target,remaining binding
"STE20-like serine/threonine-protein kinase (SLK, Homo sapiens, UniProt Q9H2G2)",100%
"Atypical kinase COQ8A, mitochondrial (COQ8A, Homo sapiens, UniProt Q8NI60)",100%
"Phosphatidylinositol 3-kinase C2 domain-containing subunit gamma (PIK3C2G, Homo sapiens, UniProt O75747)",63%
"Calcium/calmodulin-dependent protein kinase type 1D (CAMK1D, Homo sapiens, UniProt Q8IU85)",100%
"Activin receptor type-1-like (ACVRL1, Homo sapiens, UniProt P37023)",100%
"Insulin receptor (INSR, Homo sapiens, UniProt P06213)",100%
"Phosphatidylinositol 4,5-bisphosphate 3-kinase catalytic subunit alpha isoform (PIK3CA, Homo sapiens, UniProt P42336, M1043I)",100%

# Series 3 — SMILES: O=C1Nc2ccccc2/C1=C\c1c(Cl)[nH]c2ccccc12; effect on: enzyme activity; action: inhibitor; tested at: 0.5 µM; baseline: control
target,remaining activity
"cGMP-dependent protein kinase 2 (PRKG2, Homo sapiens, UniProt Q13237)",71.7%
"RAC-beta serine/threonine-protein kinase (AKT2, Homo sapiens, UniProt P31751)",96.8%
"Vascular endothelial growth factor receptor 2 (KDR, Homo sapiens, UniProt P35968)",96.3%
"Dual specificity protein kinase CLK4 (CLK4, Homo sapiens, UniProt Q9HAZ1)",105%
"Cyclin-dependent kinase 1, with cyclin A (CDK1, Homo sapiens, UniProt P06493)",103%
"Serine/threonine-protein kinase MARK2 (MARK2, Homo sapiens, UniProt Q7KZI7)",94.7%
"Mitogen-activated protein kinase 1 (MAPK1, Homo sapiens, UniProt P28482)",96.4%
"Dual specificity protein kinase CLK3 (CLK3, Homo sapiens, UniProt P49761)",102%
"Serine/threonine-protein kinase PLK3 (PLK3, Homo sapiens, UniProt Q9H4B4)",101%
"Cyclin-dependent kinase 9, with cyclin K (CDK9, Homo sapiens, UniProt P50750)",98.3%
"G protein-coupled receptor kinase 4 (GRK4, Homo sapiens, UniProt P32298)",102%
"Serine/threonine-protein kinase DCLK2 (DCLK2, Homo sapiens, UniProt Q8N568)",93.5%
"Mitogen-activated protein kinase 11 (MAPK11, Homo sapiens, UniProt Q15759)",94.5%

# Series 4 — cell line: mouse MPNST tumor cells; technique: high-content nuclear imaging; measured: cell number; tested at: 10 µM; time: 12 h; setting: mean of 2 replicates; baseline: plate mean; direction: higher = more cells
Compound,nuclei count
CCCN(CCC)CCc1cccc2c1CC(=O)N2,1.68 z-score
CC(C)(C)CC(C)(C)c1ccc(OCOCCOCCO)c(Cc2cc(C(C)(C)CC(C)(C)C)cc(Cc3cc(C(C)(C)CC(C)(C)C)ccc3OCOCCOCCO)c2OCOCCOCCO)c1,1.23 z-score
O=C1CCCC(=O)C1C(=O)c1ccc(C(F)(F)F)cc1[N+](=O)[O-],2.38 z-score
CC(=O)NS(=O)(=O)c1ccc(NC(=O)c2ccccc2C(=O)O)cc1,-0.481 z-score
COc1ccccc1Oc1c(NS(=O)(=O)c2ccc(C(C)(C)C)cc2)nc(-c2ncccn2)nc1OCCO,1.62 z-score and 0.135 z-score and 0.333 z-score
COc1ccc(/C=C/C(=O)Nc2ccccc2C(=O)O)cc1OC,0.949 z-score and -0.0696 z-score
O=C1NC(=O)c2cc(Nc3ccccc3)c(Nc3ccccc3)cc21,1.64 z-score

# Some of these lines once more (series 4):
Compound,nuclei count
CC(=O)NS(=O)(=O)c1ccc(NC(=O)c2ccccc2C(=O)O)cc1,-0.481 z-score
COc1ccccc1Oc1c(NS(=O)(=O)c2ccc(C(C)(C)C)cc2)nc(-c2ncccn2)nc1OCCO,1.62 z-score and 0.135 z-score and 0.333 z-score
COc1ccc(/C=C/C(=O)Nc2ccccc2C(=O)O)cc1OC,0.949 z-score and -0.0696 z-score
